Measurements of several laboratories.
Each numbered part is a random draw from the data of one study; scales do not carry over between parts. Positions count from the first letter of the parent shown.

Study 1
Target: CCND2, cyclin fold, Cln2 fusion (human)
Technique: yeast growth competition, sequencing
Medium: yeast
Notes: weak parent motif
Baseline: not given
Reading: higher = stronger binding
Starting sequence: MICAL3 docking peptide (human); LQLRRQLSFSEDS; partner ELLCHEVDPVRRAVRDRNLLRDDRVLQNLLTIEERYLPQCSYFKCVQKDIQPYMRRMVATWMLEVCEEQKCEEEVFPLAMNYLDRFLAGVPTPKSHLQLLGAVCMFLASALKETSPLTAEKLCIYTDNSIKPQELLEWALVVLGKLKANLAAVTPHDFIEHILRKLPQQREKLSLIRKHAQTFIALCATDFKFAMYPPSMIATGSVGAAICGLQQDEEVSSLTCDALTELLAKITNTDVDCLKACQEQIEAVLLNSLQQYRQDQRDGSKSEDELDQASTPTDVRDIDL
| Change | normalised enrichment score |
| --- | --- |
| LQLRRQLSFSGDS [E11G] | 0.121 |
| LQTRRQLSFSEDS [L3T] | 0.707 |
| LQLQRQLSFSEDS [R4Q] | 0.103 |
| LDLRRQLSFSEDS [Q2D] | 0.613 |
| LQLRRQLSFSPDS [E11P] | 0.343 |
| LNLRRQLSFSEDS [Q2N] | 0.082 |

Study 2
Target: ABI1, truncated, D143A, DHFR fusion (Arabidopsis thaliana)
Technique: DHFR PCA, deep sequencing
Medium: yeast
Notes: methotrexate growth selection, single substitutions
Added: (+)-ABA 0.0091 µM
Baseline: wild-type fitted maximum
Reading: higher = stronger binding
Starting sequence: PYL1, truncated, DHFR fusion (Arabidopsis thaliana); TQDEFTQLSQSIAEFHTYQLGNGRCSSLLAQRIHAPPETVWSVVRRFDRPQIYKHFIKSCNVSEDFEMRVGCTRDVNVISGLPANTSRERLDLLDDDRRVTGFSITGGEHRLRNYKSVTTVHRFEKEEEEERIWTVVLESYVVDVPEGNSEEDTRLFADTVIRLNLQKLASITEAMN
| Change | relative binding score [%] |
| --- | --- |
| V121M | -1.93 |
| I12Y | -3.34 |
| V118Y | 6.66 |
| Y141V | -2.4 |
| D65W | 1.24 |
| E174T | -1.05 |

Study 3
Target: Centromere-binding protein 1, full length, His-tagged (CBF1, Saccharomyces cerevisiae, UniProt P17106, residues 1-351)
Chain of UniProt P17106 (whole entry, looked up): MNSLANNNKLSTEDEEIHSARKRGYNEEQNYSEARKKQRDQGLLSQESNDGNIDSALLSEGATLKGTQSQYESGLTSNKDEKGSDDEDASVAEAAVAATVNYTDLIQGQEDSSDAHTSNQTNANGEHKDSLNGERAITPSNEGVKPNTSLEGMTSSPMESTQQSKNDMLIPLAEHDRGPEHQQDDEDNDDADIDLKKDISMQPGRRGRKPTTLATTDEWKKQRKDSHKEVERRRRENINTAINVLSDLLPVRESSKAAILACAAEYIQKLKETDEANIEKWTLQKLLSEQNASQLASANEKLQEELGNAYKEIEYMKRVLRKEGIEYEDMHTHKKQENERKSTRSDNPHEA
Technique: competition protein-binding microarray
Form: double-stranded DNA, one strand shown
Medium: in vitro
Tested at: 2 µM
Notes: whole 60-bp probe, lowest competitor level
Added: Pho4 competitor, 0.05 µM
Reading: higher = stronger binding
| Strand | fluorescence intensity [a.u.] |
| --- | --- |
| TGCGCAACAACTTTTCACGTGGGCTTATGTCTAGAAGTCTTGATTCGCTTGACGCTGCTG | 966 |
| AAAGCGGTAATTTGACACGTGGGTGCAGATATCTATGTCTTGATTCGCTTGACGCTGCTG | 1500 |
| CGTCCTAGTGATTGTTGCGTGGGTGCCATGAGGAAGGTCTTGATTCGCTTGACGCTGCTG | 80.1 |
| CGTTCCACGGAAAAACACGTGCTTTGCGGGTATCCGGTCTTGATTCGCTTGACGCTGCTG | 2010 |
| ATGCAAATGCCTCACCACGTGCAAATGTGAAAAGAGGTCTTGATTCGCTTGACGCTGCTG | 1700 |
| TGCGCAACAACTTGTATTGTGGGTGTATGTCTAGAAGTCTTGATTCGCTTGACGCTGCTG | 60.2 |
| TACAAATTGCCCGTCCACGTTCGTCGTTCTAACTTCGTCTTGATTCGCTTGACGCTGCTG | 74.9 |

Further values, each from its own experiment
| Substance | target | assay | test system | conditions | scale | measurement | result |
| --- | --- | --- | --- | --- | --- | --- | --- |
| PhoQ, residues 284 288 289 292 302 303 SSTMSV | PhoP, residues 12 14 15 18 19 SEGLL (Escherichia coli, UniProt P23836) | Sort-seq, measured: YFP reporter | E. coli | PhoQ-PhoP variant library, added: 10 µM Mg2+ | baseline: high Mg2+ state, higher = stronger signaling | fold induction | 7.88 |

Some of these lines once more (study 1):
| Change | normalised enrichment score |
| --- | --- |
| LQTRRQLSFSEDS [L3T] | 0.707 |
| LQLRRQLSFSGDS [E11G] | 0.121 |
